Experimental data collected from several papers.
Numbered parts are unrelated; each lists some results of a single study. Substitutions count along the parent as printed.

Block 1 — technique: aptamer microarray, sandwich; molecule type: DNA with 2'F-ANA; matrix: in vitro; concentration: 200 nM; together with: Cy3 exosite-II aptamer, 400 nM; direction: higher = stronger binding; strand: GGTTGGTGTGGTTGG
Target: Prothrombin, mature alpha-thrombin (F2, Homo sapiens, UniProt P00734)
Notes: whole 15-mer aptamer, many near background
`2'F-ANA at 4 5 6 7 8 10 14 15` — result for “mean fluorescence intensity”: 51.9 a.u.
For `2'F-ANA at 3 4 5 9 10 11 13`, “mean fluorescence intensity” read 52.5 a.u.
For `2'F-ANA at 2 3 4 6 7 10 11 15`, “mean fluorescence intensity” read 219 a.u.
`2'F-ANA at 2 3 4 8 9 13`: “mean fluorescence intensity” 483 a.u.
For `2'F-ANA at 1 4 5 7 9 13 14`, “mean fluorescence intensity” read 41.2 a.u.
`2'F-ANA at 1 3 5 6 7 10 13`: “mean fluorescence intensity” 48.2 a.u.
`2'F-ANA at 7 9`: “mean fluorescence intensity” 597 a.u.
Under “mean fluorescence intensity”, `2'F-ANA at 2 4 7 8 10 11 15` is recorded as 89 a.u.
Under “mean fluorescence intensity”, `2'F-ANA at 1 3 4 6 7 8 11 12 14 15` is recorded as 82.8 a.u.
`2'F-ANA at 1 2 3 5 7 11 13` — result for “mean fluorescence intensity”: 50.4 a.u.
`2'F-ANA at 1 3 4 5 6 10 11 13`: “mean fluorescence intensity” 48.5 a.u.
Under “mean fluorescence intensity”, `2'F-ANA at 1 2 3 6 7 10 11 13 15` is recorded as 61.3 a.u.
For `2'F-ANA at 1 2 3 6 7 10 11 12 14`, “mean fluorescence intensity” read 59.8 a.u.
`2'F-ANA at 7 8 9 11 12 13 14 15` — result for “mean fluorescence intensity”: 204 a.u.
`2'F-ANA at 2 5 7 8 11 12 13 14`: “mean fluorescence intensity” 65.4 a.u.
Under “mean fluorescence intensity”, `2'F-ANA at 1 2 3 4 5 9 13 14` is recorded as 48.2 a.u.
`2'F-ANA at 2 3 6 7 11 12 13 14 15` — result for “mean fluorescence intensity”: 357 a.u.
`2'F-ANA at 1 2 3 5 6 7 10 11 12 13 14`: “mean fluorescence intensity” 44.1 a.u.
`2'F-ANA at 1 2 5 6 7 8 9 15`: “mean fluorescence intensity” 84.3 a.u.

Block 2 — technique: universal PBM; molecule type: double-stranded DNA, one strand shown; matrix: in vitro; concentration: not given; direction: higher = stronger binding
Target: Sal-like protein 4, full length isoform B (SALL4, Homo sapiens, UniProt Q9UJQ4-2, residues 1-616)
Notes: 8-mer, flanks averaged, mean of replicates
Residues (chain): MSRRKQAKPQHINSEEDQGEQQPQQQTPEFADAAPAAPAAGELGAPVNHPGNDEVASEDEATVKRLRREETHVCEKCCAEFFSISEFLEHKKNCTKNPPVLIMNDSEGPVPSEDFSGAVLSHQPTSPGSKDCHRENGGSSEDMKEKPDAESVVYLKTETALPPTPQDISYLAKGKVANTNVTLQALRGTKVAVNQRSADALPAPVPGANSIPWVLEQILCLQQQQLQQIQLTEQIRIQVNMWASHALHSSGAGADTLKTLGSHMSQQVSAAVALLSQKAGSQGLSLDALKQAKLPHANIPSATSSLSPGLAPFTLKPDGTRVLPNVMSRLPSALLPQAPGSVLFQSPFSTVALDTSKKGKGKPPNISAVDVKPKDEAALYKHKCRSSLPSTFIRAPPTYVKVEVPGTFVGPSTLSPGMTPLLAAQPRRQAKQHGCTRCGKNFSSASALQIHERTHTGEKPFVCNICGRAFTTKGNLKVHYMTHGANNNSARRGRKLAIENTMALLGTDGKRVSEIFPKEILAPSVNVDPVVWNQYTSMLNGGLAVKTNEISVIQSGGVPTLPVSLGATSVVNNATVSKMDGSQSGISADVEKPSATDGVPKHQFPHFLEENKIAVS
The E-score of `GCGCATGA` is reported as -0.229.
`GGCTATGA` has an E-score of -0.0174.
`ATCCAACC` has an E-score of -0.122.
For `CAGCTTTA`, the E-score was 0.0758.
`GACCATAA` has an E-score of 0.187.
`TGGTAAAA` has an E-score of 0.209.
For `GTCATAAA`, the E-score was 0.399.
The E-score of `GCAAAATA` is reported as 0.357.
`TCTAGAAA` gave an E-score of 0.103.
`GAATGCTA` has an E-score of 0.108.
The E-score of `AAAATTAT` is reported as 0.425.
`CAGCTTGA` gave an E-score of -0.0955.
With `ACCTGGAA` the E-score was 0.104.
For `AGCTCAAG`, the E-score was -0.153.
With `TTCATCAA` the E-score was 0.238.
With `ATCCGCCC` the E-score was -0.285.
`CTACACGA` gave an E-score of 0.0971.
The E-score of `ACGTCGAC` is reported as 0.00927.

Block 3 — target: CCNE2, cyclin fold, Cln2 fusion (human); technique: yeast growth competition, sequencing; matrix: yeast; notes: weak parent motif; relative to: not given; direction: higher = stronger binding
Parent: MASTL docking peptide (human); PMIAKNLMCELDE
Under “normalised enrichment score”, `I3G` is recorded as 0.292.
`M2R`: “normalised enrichment score” -0.083.
`M8N` — result for “normalised enrichment score”: -0.331.
`C9S`: “normalised enrichment score” -0.151.
For `M8F`, “normalised enrichment score” read 0.0244.
`L11A` — result for “normalised enrichment score”: 0.122.
For `I3W`, “normalised enrichment score” read -0.162.
`C9Y` — result for “normalised enrichment score”: -0.311.
`C9V` — result for “normalised enrichment score”: -0.0904.
`I3Q`: “normalised enrichment score” -0.0759.
`A4R` — result for “normalised enrichment score”: 0.3.
`M8V` — result for “normalised enrichment score”: 0.247.
For `E10M`, “normalised enrichment score” read -0.0781.

Other studies, line by line
With `PhoQ, residues 284 288 289 292 302 303 NLSRDF` the fold induction was 21.7 (PhoP, residues 12 14 15 18 19 LWHSL (Escherichia coli, UniProt P23836); Sort-seq, item: YFP reporter; E. coli; PhoQ-PhoP variant library, together with: 10 µM Mg2+; relative to: high Mg2+ state, higher = stronger signaling).
